Measured values collected from several papers.
Protocols differ between the studies behind these lines. “And” joins repeats or separate records; there may be more than shown. ± gives the spread as reported.

`Cc1cc2c(cc1C)[n+](Cc1ccc3ccccc3n1)cn2Cc1ccc2ccccc2n1`: “mean growth percentage” 11.8% (NSCLC cell lines; NCI60 one-dose screen; 10 µM).
With `COc1cnc2cccc(N3CCc4c(cc(Cn5ccnc5C)cc4-c4cn(C)nc4C(F)(F)F)C3=O)c2c1` the EC50 was 602 nM (G-401; cell growth, inhibitor; 120 h).
`Cc1cc(Nc2ncc(Cl)c(Nc3ccccc3S(=O)(=O)C(C)C)n2)c(OC(C)C)cc1C1CCNCC1`: “log2 fold change” -1.83 (CLB-GE; phosphoproteomics LC-MS/MS, item: EIF4B phosphorylation; 200 nM, 60 min; relative to: untreated).
For `CCCCc1nc(Cl)c(CO)n1Cc1ccc(-c2ccccc2-c2nn[nH]n2)cc1`, “log2 fold change” read -3.82 (human PBMC; RNA-seq, item: MS4A6A mRNA; 10 µg/mL, 24 h; relative to: untreated control).
For `CC(C)C(=O)Nc1n[nH]c2cc(-c3cccc(NS(=O)(=O)C4CC4)c3)ccc12`, the LRP6-positive cells was 47.8% and 30.9% (HEK293T; flow cytometry, item: surface LRP6; concentration not given, 8 h, with: WNT3A).
`CCOc1cc([C@@H](CS(C)(=O)=O)N2C(=O)c3cccc(NC(C)=O)c3C2=O)ccc1OC` — result for “cAMP level difference”: -2.64 (PBMC; MSD; 10 µM, unit not given, with: PGE2; relative to: DMSO).
For `C[C@@H]1O[C@@H](OC[C@H]2O[C@@H](Oc3c(-c4ccc(OCCO)c(OCCO)c4)oc4cc(OCCO)cc(O)c4c3=O)[C@H](O)[C@@H](O)[C@@H]2O)[C@H](O)[C@H](O)[C@H]1O`, the TEER increase was 15% (Caco-2 monolayers; 100 µg/mL, 45 min).
Under “cAMP level difference”, `C=C[C@@]1(C)CC(=O)[C@]2(O)[C@@]3(C)[C@@H](O)CCC(C)(C)[C@@H]3[C@H](O)[C@H](OC(C)=O)[C@@]2(C)O1` is recorded as -0.723 (PBMC; MSD; 0.0001 µM, unit not given, with: PGE2; relative to: DMSO).
`Cn1cc(Nc2nccc(-c3ccc4c(c3)CN(C3COC3)CC[C@H]4NC(=O)c3cn(C(C)(C)C)nn3)n2)cn1`: “pathway activation z-score” 2.53 (mouse splenic B cells; item: UVB-Induced MAPK signalling; 30 mg/kg, IgD-activated in vivo; relative to: vehicle, direction not given).
With `[Cl-].[Cl-].[Os+2].c1cnc2c(c1)ccc1cccnc12.c1cnc2c(c1)ccc1cccnc12.c1cnc2c(c1)ccc1cccnc12` the phototherapeutic index was 2 (SK-MEL-28; resazurin; normoxia, with: green light 523 nm; relative to: dark EC50 over light EC50).
`C=CC1=C(C)c2cc3[n-]c(cc4nc(cc5[n-]c(cc1n2)c(C)c5C=C)C(C)=C4CCC(=O)O)c(CCC(=O)O)c3C.[Zn+2]` gave a fold change of 3.22 (SH-SY5Y; RNA-seq, item: FLT1 mRNA; 5 µM, 5 h; relative to: untreated cells).
With `CN(C)c1ccccc1CN1CCCN(Cc2ccccc2N(C)C)C1c1ccncc1` the inhibition was ~50% (Sufu-/- mouse embryonic fibroblasts; qRT-PCR, item: Gli1 mRNA; 10 µM; relative to: DMSO).
`COc1cc(/C=C/C(=O)N2CCC=CC2=O)cc(OC)c1OC` has a mRNA level of 80.4 ± 2.1% (MDA-MB-468; quantitative RT-PCR, item: Bcl-2; 30 µM, 8 h; relative to: untreated).
`CC(=O)Nc1cccc(C(=O)Nc2ccc(Nc3nccc(-c4cccnc4)n3)c(C)c2)c1` gave a reporter activity of 1.11 (AP1 reporter HEK293; AP1 reporter gene, inhibitor; 10 µM, 6 h, compound washed out, unit not given, with: PMA; relative to: PMA alone).
For `Cn1cc(-c2ccc(-c3cncc(Cl)c3N3CCC4(CCNC4=O)CC3)cc2)cn1`, “log2 fold change” read -2.48 (COLO 205; gene expression, microarray, item: HIST1H4A mRNA; concentration not given, 2 h; relative to: untreated cells).
`COC(=O)c1cc2c(cc1C(=O)OC)[n+](Cc1ccc3ccccc3c1)cn2Cc1ccc2ccccc2c1`: “mean growth percentage” 87% (NSCLC cell lines; NCI60 one-dose screen; 10 µM).
`CCCc1n(Cc2ccc3ccccc3n2)cc[n+]1Cc1ccc2ccccc2n1` has a growth of 25 to 31.8% (NSCLC cell lines; NCI60 one-dose; 10 µM, average over cell lines).
`C=CC(=O)N1CCC([C@@H]2CCNc3c(C(N)=O)c(-c4ccc(Oc5ccccc5)cc4)nn32)CC1` has a maximum inhibition of 87.1% (TMD8 wild-type; calcium flux, FLIPR; 2 h preincubation, with: anti-IgM).
For `CCCc1n(Cc2ccc3ccccc3n2)cc[n+]1Cc1ccc2ccccc2c1`, the growth was 7.64 to 16% (NSCLC cell lines; NCI60 one-dose; 10 µM, average over cell lines).
`O=C1[C@H]2CCCN2[C@H](c2ccc3c(c2)OCO3)N1c1ccc(Cl)c(Cl)c1` (mixture of isomers) — result for “mutant huntingtin-induced cytotoxicity”: “decreased” (PC-12, differentiated; 50 µM, 4 days).
`CCn1cc(-c2cc(Cn3ccoc3=N)cc3c2CCN([C@@H](C)c2cc(OC)ccn2)C3=O)c(C(F)(F)F)n1` gave an EC50 of 170 nM (HEC-50B; cell growth, inhibitor; 120 h).
`Clc1nc(NCc2ccco2)c2[nH]cnc2n1` gave a ΔPSI of -0.201 (FD iPSC-derived cardiomyocytes; alternative splicing, RNA-seq, item: C17orf53 exon chr17:44150960-44151044; unit not given; relative to: DMSO minus compound).
`CC/C(=N\NC(=O)NCc1cccc(O)c1)c1ccc(O)c(C)c1O` gave a protein level of 1.39 ± 0.25 (SK-OV-3; Western blot, item: YAP; 10 µM, 3 h, 2D culture, unit not given; relative to: β-actin).
`CSc1cc(Oc2ccnc3[nH]c(=O)cnc23)ccc1NC(=O)Nc1cc(C(C)(C)C)nn1-c1ccccc1` — result for “phospho/total p53 ratio”: 0.64 (patient-derived cell line (sample C); reverse phase protein array, item: p53 pSer15; human; 1 µM, 4 h; relative to: DMSO).
With `CCCCN1C[C@H](O)[C@@H](O)[C@@H](O)[C@H]1CO` the IC50 was 11100 nM (sample G patient fibroblasts; Gb3 level lowering, LC-MS/MS, item: Gb3 d18:1/16:0; 216 h).
`Nc1cccc2c1C(=O)N(C1CCC(=O)NC1=O)C2=O` (centres unmarked): “surface marker level” 186% (RPMI-8226; flow cytometry, item: CD162; concentration not given; relative to: comparator compound alone).
Under “Bliss synergy score”, `COc1cc2ncnc(Nc3ccc(Oc4ccccc4)cc3C)c2cc1OC.O=C(O)C(F)(F)F` is recorded as -13.7% (SW1417 (BRAF V600E); resazurin; concentration not given, 72 h, with: trametinib; direction not given).
`CC[C@H](CO)Nc1nc(NCc2ccc(-c3ccccn3)cc2)c2ncn(C(C)C)c2n1` has a GI50 of 190 nM (NCI-60 cell lines; mean).
`Cn1c(Nc2nc3ccc(C(F)(F)F)cc3s2)nc2cc(C(=O)NCCOCCO)ccc21` has a fold change of 2.36 (SH-SY5Y; RNA-seq, item: DKK1 mRNA; 5 µM, 5 h; relative to: untreated cells).
`Cc1ccc(-c2cc3ccccc3c(N)n2)cc1` — result for “early apoptotic cells”: 3.2% (RS4;11; annexin V-FITC/PI flow cytometry, item: annexin V+ PI-; 5.0 µM, 72 h).
For `CC#CC(=O)N1CCC[C@H]1c1nc(-c2ccc(C(=O)Nc3ccccn3)cc2)c2c(N)nccn12`, the maximum inhibition was 75.8% (TMD8 wild-type; calcium flux, FLIPR; 4 h preincubation, with: anti-IgM).
`CCCCCCOC(=O)[C@]1(O)C[C@@H]2O[C@@]1(C)n1c3ccccc3c3c4c(c5c6ccccc6n2c5c31)C(=O)NC4`: “relative cell number” 131% (SK-OV-3; ATP; 2D monolayer culture; 0.1 µM, 4 days; relative to: untreated).
The toxicity of `COc1ccc(-n2nc(C(C)=O)s/c2=N\N=C(/C)c2ccc(NC(=O)c3ccc(Cl)cc3)cc2)cc1` is reported as 51.7% (MCF7; 0.156 µM).
With `COc1ccc(N(CC2CCC2)S(=O)(=O)C2CC3OC2C(c2ccc(O)cc2)=C3c2ccc(O)cc2)cc1` (centres unmarked) the Emax was -8.4% (MCF7 3xERE-luc, steroid-deprived; ERE luciferase reporter, agonist; relative to: vehicle).
`CCN1[C@@H](C(=O)NC23CCC(C(=O)O)(CC2)CC3)[C@H](c2cccc(Cl)c2F)[C@]2(C(=O)Nc3cc(Cl)ccc32)C12CCCCC2` gave a GI50 of 66 nM (well-differentiated liposarcoma cells (MDM2 amplified); cell proliferation, alamarBlue; 72 h).
Under “normalized enrichment score”, `CCc1cnc(N2CCC(c3nc(COc4ccc(-n5cnnn5)cc4)cs3)CC2)nc1` is recorded as 0.929 (HEK-293T; RNA-seq GSEA, item: HALLMARK_PANCREAS_BETA_CELLS; concentration not given; direction not given).
With `NNc1nc(-c2ccc(Cl)cc2)c2c(NC(=O)c3ccccc3)nnc-2[nH]1` the cell growth was 96.4% (SF-539; SRB; 10 µM, NCI60 single-dose screen; relative to: untreated).
`Cc1n(Cc2ccc3ccccc3n2)cc[n+]1Cc1ccc2ccccc2c1.[Br-]` gave a TGI of ≤ 27600 nM (NSCLC cell lines; upper end of range).
`CC(C)NCC(O)c1ccc(O)c(O)c1` (centres unmarked) has a sarcomere length of 1.8 µm (mouse ventricular cardiomyocytes; dose not given, 0.315 s).
`CCOc1ccccc1C1CC(c2ccccc2)Nc2nc(N)nn21` (centres unmarked) has a maximum inhibition of 67% (MEF with TRE-FLAG-LMNB1; LMNB1 level, high-content screening; 250 µM).
`C[C@H]1Oc2cc(cnc2N)-c2c(nn(C)c2C#N)CN(C)C(=O)c2ccc(F)cc21` has an Emax of 99.9% (Ba/F3 EML4-ALK v3; cell viability).
`C=CC(=O)N1[C@@H](c2ccc3c(c2)OCO3)c2[nH]c3ccccc3c2C[C@H]1C(=O)NC` — result for “mean neuron degeneration”: 79.6% (rat DRG neurons; 0.01372 µM, 48 h, with: vincristine 40 nM).
`Nc1ncnc2c1ncn2[C@@H]1O[C@H](CO)[C@@H](O)[C@H]1O`: “T cell proliferation” 0.85 a.u. and 0.7 a.u. and 1.1 a.u. (activated human T cells; 100 µM; higher = more proliferation).
`CC/C(=N\NC(=O)C(C)Nc1ccccc1)c1ccc(O)c(C)c1O` (centres unmarked) — result for “TAZ band intensity”: 0.44 ± 0.15 (SK-OV-3; Western blot; 10 µM, 1 h, 2D culture, unit not given; relative to: DMSO).
`CCn1cc(-c2cc(Cn3ccnc3)cc3c2CCN([C@H](c2cc(OC)ccn2)C2CC2)C3=O)c(C(F)(F)F)n1` gave an EC50 of > 30000 nM (SCC-25; cell growth, inhibitor; 120 h).
Under cytotoxicity, `O=C(NCCc1c[nH]c2ccccc12)C(=O)c1c[nH]c2ccc(F)cc12` is recorded as “not toxic” (BxPC-3, MDA-MB-231, PC-3, HeLa, C4-2, HEK293T; MTT; 100 µM).
`O=C(/C=C/C=C/C=C/C1CCCCC1)NC1=C[C@@](O)(/C=C/C=C/C=C/C(=O)NC2=C(O)CCC2=O)[C@@H]2O[C@@H]2C1=O` has a GI50 of 12500 nM (NCI-H146; cell growth, CellTiter-Glo; 78 h).
